Measurements gathered from unrelated publications.
Every numbered part comes from another study and shows a few of its results, in no order.

Set 1
Target: RING finger protein unkempt homolog, zinc fingers 1-6, GST-SBP tag (UNK, Homo sapiens, UniProt Q9C0B0, residues 30-357)
UniProt Q9C0B0, sequence (30-357, looked up): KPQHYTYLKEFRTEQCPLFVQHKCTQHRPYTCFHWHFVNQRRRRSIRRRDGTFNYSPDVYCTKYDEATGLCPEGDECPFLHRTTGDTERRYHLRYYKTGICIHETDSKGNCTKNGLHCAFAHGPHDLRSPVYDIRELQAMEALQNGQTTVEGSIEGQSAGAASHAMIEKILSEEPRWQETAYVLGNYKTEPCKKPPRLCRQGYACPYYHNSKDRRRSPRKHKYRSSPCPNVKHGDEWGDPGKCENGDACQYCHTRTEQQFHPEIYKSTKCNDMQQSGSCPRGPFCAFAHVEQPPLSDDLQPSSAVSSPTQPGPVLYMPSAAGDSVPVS
Method: RNA Bind-n-Seq
Molecule type: RNA
Sample: in vitro
Concentration: not given
Notes: RNA with constant flanks, human and mouse sites, ends assumed
Reference: input RNA pool
Reading: higher = stronger binding
Shared flanks, not repeated: GGGAGUUCUACAGUCCGACGAUC … CAACAGAGGAUUGAGCAUCA
Sequence	bound/input enrichment [ratio]
UUGGGAGGCGAGAAGAUGUGCAGGUUCCUGACAGCAGUGCAGGGAGGAAGUUUCAUCCUGUCCUCCGUGGGGAGCCAGUUGGUUCGAUUGAUUCCUGAAAGCUCAGGAAAGAUUCACCAG	0.143
CCCAGUCCCCAUUACUUAUUUGCACACUUGUUUUAACUGACUUCCUGUUUUGAUAUUUAUCACCAAGACCAUAAACUCAUCAAUAUGAAUUUUCUUGAUGUAUACUCACGACUGUCUUUG	0.602
GAAGAAGAUGAACACUUCGAUGACACAGUGGUUUGUCUUGAUACUUAUAAUUGUGAUCUACAUUUUAAAAUAUCAAGAGAUCGUCUCAGUGCUUCUUCCCUUACAAUGGAGAGUUUUGCU	0.307
CUGAAGGCAUUGGAGAGACUCGAGGGUGUGGAAGGUGUGGCCCAUAUCAUCGACCCCAAGGCCAUCAGCAAAGACCACCUCUACGGAACCCUGGACCCCAACACCAGGGAAUGGACAGAU	0.294
GUUAGUUUCUUUAUAACCCGUUUAAGUUUGGUUUGCCUCAAUAUACUUUUUAGUUAUUUAAUUAGUAAUUUAAGUAAAUGUGUUUGGUAAUCAUUGUGAAGUUCAGAUUUAUUAUGGAGA	12.9
ACCAUGAAUGAUAUUGAUGCUUUUGAAUUUCAUGAAGCUUUCUCGGGUCAGAUUUUGGCAAAUUUUAAAGCCAUGGAUUCUGAUUGGUUUGCAGAAAACUACAUGGGUAGAAAAACCAAG	0.174
GUCUACCUUAACCUGGUGCUGGACUAUGUUCCGGAGACAGUGUACAGAGUCGCCAGACACUAUAGUCGAGCCAAGCAGACACUCCCUGUGAUCUAUGUCAAGUUGUAUAUGUAUCAGCUG	0.0725
UUCGGGAAAAUAACCAGUUAAACCAGCUACUCAAGGCUGCUCACCAUACGGCUCUAACAGAUUAGGGGCUAAAACGAUUACUGACUUUCCUUGAGUAGUUUUUAUCUGAAAUCAAUUAAA	0.497
UUUAACCAUGUGUCUACAAGAAUAAGUUUGUUUUGGAAAGUUGAGCUAUAGCUACAGCUCUAGCUAUCCAGCAGACUUUUCAUUAUGACUUACAUGGCAGGAGCUCUAAUUAUGCUUUAA	0.152
ACAGACAGCUCUGAAGAAGCGGCAGCUGCACACAACCUGGGAGGAGGGCCUGGCCCUGCCCCUGGGUGAGGAAGAGCUCCCCACAGCUACCCUGACACUCACCCUGCGCACCUGUGACCG	0.171
UUGGUGUCCAGAGCUCACCAGCUGGUGAUGGAGGGAUAUAACUGGUGCCAUGACCGGAACGUAGUAACAAUUUUCAGUGCUCCAAACUAUUGCUAUCGUUGUGGUAACCAAGCUGCAAUC	0.164

Set 2
Target: Interferon regulatory factor 7, full length, phosphomimetic (IRF7, Homo sapiens, UniProt Q92985, residues 1-503, S471D/S472D/S475D/S476D/S477D/S483D/S484D/S487D)
Method: protein-binding microarray
Molecule type: double-stranded DNA, one strand shown
Sample: in vitro
Concentration: 2200 nM top
Notes: 60-bp whole probe
Together with: salmon DNA 0.4 mg/ml
Reference: random background probes
Reading: higher = stronger binding
Shared flanks, not repeated: GCCTAGCAC … GTCTTGATTCGCTTGACGCTGCTG
Target sequence (chain): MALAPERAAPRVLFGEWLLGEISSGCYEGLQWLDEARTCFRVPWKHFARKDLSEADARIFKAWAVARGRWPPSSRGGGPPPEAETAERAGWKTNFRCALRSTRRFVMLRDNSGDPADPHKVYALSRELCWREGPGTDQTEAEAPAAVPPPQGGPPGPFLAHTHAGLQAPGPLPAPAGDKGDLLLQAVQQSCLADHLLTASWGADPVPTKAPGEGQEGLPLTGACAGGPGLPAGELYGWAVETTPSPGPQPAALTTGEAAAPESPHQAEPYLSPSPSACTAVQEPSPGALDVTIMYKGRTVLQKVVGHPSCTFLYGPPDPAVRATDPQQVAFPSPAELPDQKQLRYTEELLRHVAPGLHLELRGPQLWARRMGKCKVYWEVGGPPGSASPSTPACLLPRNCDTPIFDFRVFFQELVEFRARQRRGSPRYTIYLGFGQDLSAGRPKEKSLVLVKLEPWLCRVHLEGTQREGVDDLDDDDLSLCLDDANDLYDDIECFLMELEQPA
Sequence	fitted relative affinity
TTAGAACTAGGGTTTCGATTAGTGCTA	1.33 z-score
GACGGACTGGAGACTGGGGACGTGCTA	-0.947 z-score
TCAATATTCATTTTATTACTGTGCTAG	1.45 z-score
TCACATTGCCTATTTTTCACTGTGCTA	2.14 z-score
TTAGGTATCCGGTATCGGTTAGTGCTA	0.149 z-score
GACGGTTTCGGGACTGGGGGCGTGCTA	3.85 z-score
GACGGTTTCGGTTCCGGGAGGTGCTAG	11.4 z-score
TCATTTCCCACTTTCAGACTGTGCTAG	4.68 z-score
GACGAACTGAGTTTCGAGTCGTGCTAG	4.19 z-score
TTAGGACTACTACTGCTTTAGTGCTAG	0.222 z-score
GACGGTTCCGGTTTGGGGACGTGCTAG	3.8 z-score
CTGTTTCTACTGTCTGTTTCCGTGCTA	3.84 z-score
CATGAATCAGGCATAGCATGGTGCTAG	-0.0532 z-score
TTAGGTATCGGTTTCGGTTCGTGCTAG	12.6 z-score
TTAGTTATCGGGTATCGGTTAGTGCTA	1.35 z-score
TTAGTTTCCCTTTTCCTTTAGTGCTAG	9.31 z-score
TTTGGTATCGGTCTCGGTTAGTGCTAG	1.47 z-score
TCATTTTTTTAATTGAGACTGTGCTAG	0.558 z-score

Set 3
Target: Sal-like protein 4, full length isoform A (SALL4, Homo sapiens, UniProt Q9UJQ4, residues 1-1053)
UniProt Q9UJQ4, sequence (whole entry, looked up): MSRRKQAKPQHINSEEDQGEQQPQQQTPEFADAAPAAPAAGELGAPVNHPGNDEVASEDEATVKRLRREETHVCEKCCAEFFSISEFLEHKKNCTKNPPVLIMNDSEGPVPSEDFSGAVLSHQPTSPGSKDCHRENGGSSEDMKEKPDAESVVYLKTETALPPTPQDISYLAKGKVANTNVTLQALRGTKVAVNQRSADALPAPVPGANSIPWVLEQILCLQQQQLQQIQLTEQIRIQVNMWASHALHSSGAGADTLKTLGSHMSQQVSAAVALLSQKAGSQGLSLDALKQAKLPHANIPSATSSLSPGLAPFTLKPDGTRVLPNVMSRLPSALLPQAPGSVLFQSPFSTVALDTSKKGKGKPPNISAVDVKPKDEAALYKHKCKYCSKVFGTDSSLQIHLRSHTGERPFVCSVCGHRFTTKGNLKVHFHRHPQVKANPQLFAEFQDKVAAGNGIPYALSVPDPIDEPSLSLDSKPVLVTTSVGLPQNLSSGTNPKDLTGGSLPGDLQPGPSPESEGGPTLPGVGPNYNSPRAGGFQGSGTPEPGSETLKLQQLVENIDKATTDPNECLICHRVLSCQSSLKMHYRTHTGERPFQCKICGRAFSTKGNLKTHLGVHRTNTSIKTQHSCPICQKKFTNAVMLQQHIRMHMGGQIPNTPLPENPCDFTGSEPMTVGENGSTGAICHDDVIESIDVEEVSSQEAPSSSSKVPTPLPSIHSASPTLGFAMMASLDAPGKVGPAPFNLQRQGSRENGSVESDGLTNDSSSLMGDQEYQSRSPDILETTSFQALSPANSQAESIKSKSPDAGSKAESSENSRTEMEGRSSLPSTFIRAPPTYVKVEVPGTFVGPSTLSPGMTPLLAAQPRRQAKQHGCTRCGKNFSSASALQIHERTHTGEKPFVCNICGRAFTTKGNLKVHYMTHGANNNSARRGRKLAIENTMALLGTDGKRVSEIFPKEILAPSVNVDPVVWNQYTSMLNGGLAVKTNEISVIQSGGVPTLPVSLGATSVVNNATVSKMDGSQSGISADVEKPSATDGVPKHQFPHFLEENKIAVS
Method: universal PBM
Molecule type: double-stranded DNA, one strand shown
Sample: in vitro
Concentration: 600 nM
Notes: 8-mer, flanks averaged, mean of replicates
Reading: higher = stronger binding
Sequence	E-score
CGTCATTA	0.0434
GCATGTAC	-0.056
CCGCGCAG	-0.342
ATTCCATA	0.284
AATCAGTG	0.0612
CACAAGTC	-0.000355
CGCGATTA	-0.0136
AGGCCTTA	-0.156
CGGGAGCA	-0.286
CGACAGCG	-0.256
TATGCAGA	0.257
AACAGGAC	-0.131
CTTCGATA	0.221
GGGCTCAC	-0.43
CGCCCCTC	-0.437
GACATGCC	-0.0825
GCGATACA	0.0733
CCACAACG	-0.174
GGCACATA	0.101
GCTGAAAA	0.0829
CACAGACG	-0.122
GGTCGCCA	-0.28
CTTACCTA	0.0169
GAATTACA	0.198
ACAGCTGG	-0.223

Set 4
Target: Fragile X messenger ribonucleoprotein 1, C-terminal low-complexity region (Fmr1, Mus musculus, UniProt P35922)
Method: RNA Bind-n-Seq
Molecule type: RNA
Sample: in vitro
Concentration: 200 nM
Notes: whole 134-nt RNA, ends assumed
Together with: 150 mM KCl
Reference: input library
Reading: higher = stronger binding
Shared flanks, not repeated: GGGAGUUCUACAGUCCGACGAUC … UGGAAUUCUCGGGUGUCAAGG
Sequence	log2 enrichment
UGUUCACAUUUUAAGGAUGACAAGUCCACUAUAUGUAACACGUAAGAAUGCUAUCCUGGCAGUAGACACAGGGCCAGAAUAAACUGGCAA	-0.543
CCUCAAGUCCUGUGCUACACAUCGUAUGUACCGAAUCGGGAGGAGGGGAGGGGAAAGUAUUAUGUUACGCCGUUCGGAUCUGCACUUCCA	1.35
CAAGUCCUGUGCUACACAUCGUAUGUACCGAAUCGGGUUUUUGGGAGGGUUUGGGAAAGUAUUAUGUUACGCCGUUCGGAUCUGCACUUC	0.892
UAACUUUAGAGGAGGAUCUGAUGGAUAUGGCAGUGGACGUGCAUUUGGGGAUGGCUAUAAUGGGUAUGGAGGAGGACCUGGAGGUGGCAA	0.0835
UGGCCCUGGUGACAUGCGGGGAGGAAGAGGUGGCCUCAUGGAUCGUGGUGGUCCCGGUGGAAUGUUCAGAGGUGGCCGUGGUGGAGACAG	-0.0815
GUCCUGUGCUACACAUCGUAUGUACCGAAUCGGGGAAAAAGGGGAGGGGUUUUUGGGGAAAGUAUUAUGUUACGCCGUUCGGAUCUGCAC	0.367
GUCCUGUGCUACACAUCGUAUGUACCGAAUCGGGAAAAAAAGGGAAAGGGAAAAAGGGAAAGUAUUAUGUUACGCCGUUCGGAUCUGCAC	-0.502
GUCCUGUGCUACACAUCGUAUGUACCGAAUCGGUUUUUUUGGAAAAAGGUUUUUUUGGAAAGUAUUAUGUUACGCCGUUCGGAUCUGCAC	-1.11
UGUAGAAAAGGCACUGGACUAACACUUGGCUGUAUCUUGUAACAGGCAUGUUAUGUUACCCAGAGAACUUUCCAAACAAGUACCUAAAAC	-0.109
UCAUGUAUAGACAACGCCAUUAUUGACGAGAUCACUCCCAAGCGGAUUGGAGAUUGUCCCAAUAUUUAGACCUAUAGCAAGGCCUUGGGA	0.385
CCUGUGCUACACAUCGUAUGUACCGAAUCGGGUUUUUGGGAAAAAAAGGGUUUUUUUGGGAAAGUAUUAUGUUACGCCGUUCGGAUCUGC	-0.816
CACAGACAACACGCACCCACACAGACACAGAGGGAAGCGGUUGGGAUGGGGACAGGGUGCACAGCAGGGCGGGGUAGGACCCCAGCCCCU	1.45
CAACUUUAGAGGAGGAUCUGAUGGAUAUGGCAGUGGACGUGGAUUUGGGGAUGGCUAUAAUGGGUAUGGAGGAGGACCUGGAGGUGGCAA	0.433
UCAAGUCCUGUGCUACACAUCGUAUGUACCGAAUCGGGUGGGUGGGAAAAAGGGAAAGUAUUAUGUUACGCCGUUCGGAUCUGCACUUCC	1.08

A few entries again (set 4):
Sequence	log2 enrichment
GUCCUGUGCUACACAUCGUAUGUACCGAAUCGGGAAAAAAAGGGAAAGGGAAAAAGGGAAAGUAUUAUGUUACGCCGUUCGGAUCUGCAC	-0.502
CCUGUGCUACACAUCGUAUGUACCGAAUCGGGUUUUUGGGAAAAAAAGGGUUUUUUUGGGAAAGUAUUAUGUUACGCCGUUCGGAUCUGC	-0.816
UCAUGUAUAGACAACGCCAUUAUUGACGAGAUCACUCCCAAGCGGAUUGGAGAUUGUCCCAAUAUUUAGACCUAUAGCAAGGCCUUGGGA	0.385
CCUCAAGUCCUGUGCUACACAUCGUAUGUACCGAAUCGGGAGGAGGGGAGGGGAAAGUAUUAUGUUACGCCGUUCGGAUCUGCACUUCCA	1.35
